{"data": "Results from different studies", "B1": "CFH 1108-1231 W1183L (Homo sapiens, UniProt P08603); sequence looked up; chain KCGPPPPIDNGDITSFPLSVYAPASSVEYQCQNLYQLEGNKRITCRNGQWSEPPKCLHPCVISREIMENYNIALRLTAKQKLYSRTGESVEFVCKRGYRLSSRSHTLRTTCWDGKLEYPTCAKR", "B2": "Cacna1c 1647-1777 (Mus musculus, UniProt Q01815); sequence looked up; chain NALSLQAGLRTLHDIGPEIRRAISGDLTAEEELDKAMKEAVSAASEDDIFRRAGGLFGNHVTYYQSDSRGNFPQTFATQRPLHINKTGNNQADTESPSHEKLVDSTFTPSSYSSTGSNANINNANNTALGR", "B3": "PUX5 301-421 F395S (Arabidopsis thaliana, UniProt Q7Y175); chain KNPFQGVGRTLGASGSGSSSAPQASSAPMNVAPAPSRGLVVDPAAPTTSIQLRLADGTRLVSRFNNHHTVRDVRGFIDASRPGGSKEYQLLTMGSPPKQLTELDQTIEQAGIANAVVIQKF", "note": "Compare with care: the assays were run in different laboratories. “And” joins repeats or separate records; there may be more than shown. Numbers after ± are the reported error.", "UniProt Q64663, sequence (whole entry, unmodified, looked up)": "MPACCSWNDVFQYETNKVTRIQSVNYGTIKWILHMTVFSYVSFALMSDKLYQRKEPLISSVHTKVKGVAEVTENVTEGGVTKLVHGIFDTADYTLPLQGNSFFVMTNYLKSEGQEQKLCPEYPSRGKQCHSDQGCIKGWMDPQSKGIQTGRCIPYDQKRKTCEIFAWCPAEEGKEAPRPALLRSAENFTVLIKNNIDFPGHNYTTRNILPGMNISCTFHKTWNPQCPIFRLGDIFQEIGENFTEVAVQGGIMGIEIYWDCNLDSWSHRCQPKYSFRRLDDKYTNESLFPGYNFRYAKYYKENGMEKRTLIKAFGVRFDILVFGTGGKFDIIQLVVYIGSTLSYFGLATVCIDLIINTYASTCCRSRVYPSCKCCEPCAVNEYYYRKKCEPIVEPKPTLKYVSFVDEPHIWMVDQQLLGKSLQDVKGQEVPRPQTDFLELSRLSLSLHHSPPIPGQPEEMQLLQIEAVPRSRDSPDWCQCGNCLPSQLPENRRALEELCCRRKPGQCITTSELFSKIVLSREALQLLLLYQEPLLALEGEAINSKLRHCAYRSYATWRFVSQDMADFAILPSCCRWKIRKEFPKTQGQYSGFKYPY", "UniProt P01024, sequence (whole entry, looked up)": "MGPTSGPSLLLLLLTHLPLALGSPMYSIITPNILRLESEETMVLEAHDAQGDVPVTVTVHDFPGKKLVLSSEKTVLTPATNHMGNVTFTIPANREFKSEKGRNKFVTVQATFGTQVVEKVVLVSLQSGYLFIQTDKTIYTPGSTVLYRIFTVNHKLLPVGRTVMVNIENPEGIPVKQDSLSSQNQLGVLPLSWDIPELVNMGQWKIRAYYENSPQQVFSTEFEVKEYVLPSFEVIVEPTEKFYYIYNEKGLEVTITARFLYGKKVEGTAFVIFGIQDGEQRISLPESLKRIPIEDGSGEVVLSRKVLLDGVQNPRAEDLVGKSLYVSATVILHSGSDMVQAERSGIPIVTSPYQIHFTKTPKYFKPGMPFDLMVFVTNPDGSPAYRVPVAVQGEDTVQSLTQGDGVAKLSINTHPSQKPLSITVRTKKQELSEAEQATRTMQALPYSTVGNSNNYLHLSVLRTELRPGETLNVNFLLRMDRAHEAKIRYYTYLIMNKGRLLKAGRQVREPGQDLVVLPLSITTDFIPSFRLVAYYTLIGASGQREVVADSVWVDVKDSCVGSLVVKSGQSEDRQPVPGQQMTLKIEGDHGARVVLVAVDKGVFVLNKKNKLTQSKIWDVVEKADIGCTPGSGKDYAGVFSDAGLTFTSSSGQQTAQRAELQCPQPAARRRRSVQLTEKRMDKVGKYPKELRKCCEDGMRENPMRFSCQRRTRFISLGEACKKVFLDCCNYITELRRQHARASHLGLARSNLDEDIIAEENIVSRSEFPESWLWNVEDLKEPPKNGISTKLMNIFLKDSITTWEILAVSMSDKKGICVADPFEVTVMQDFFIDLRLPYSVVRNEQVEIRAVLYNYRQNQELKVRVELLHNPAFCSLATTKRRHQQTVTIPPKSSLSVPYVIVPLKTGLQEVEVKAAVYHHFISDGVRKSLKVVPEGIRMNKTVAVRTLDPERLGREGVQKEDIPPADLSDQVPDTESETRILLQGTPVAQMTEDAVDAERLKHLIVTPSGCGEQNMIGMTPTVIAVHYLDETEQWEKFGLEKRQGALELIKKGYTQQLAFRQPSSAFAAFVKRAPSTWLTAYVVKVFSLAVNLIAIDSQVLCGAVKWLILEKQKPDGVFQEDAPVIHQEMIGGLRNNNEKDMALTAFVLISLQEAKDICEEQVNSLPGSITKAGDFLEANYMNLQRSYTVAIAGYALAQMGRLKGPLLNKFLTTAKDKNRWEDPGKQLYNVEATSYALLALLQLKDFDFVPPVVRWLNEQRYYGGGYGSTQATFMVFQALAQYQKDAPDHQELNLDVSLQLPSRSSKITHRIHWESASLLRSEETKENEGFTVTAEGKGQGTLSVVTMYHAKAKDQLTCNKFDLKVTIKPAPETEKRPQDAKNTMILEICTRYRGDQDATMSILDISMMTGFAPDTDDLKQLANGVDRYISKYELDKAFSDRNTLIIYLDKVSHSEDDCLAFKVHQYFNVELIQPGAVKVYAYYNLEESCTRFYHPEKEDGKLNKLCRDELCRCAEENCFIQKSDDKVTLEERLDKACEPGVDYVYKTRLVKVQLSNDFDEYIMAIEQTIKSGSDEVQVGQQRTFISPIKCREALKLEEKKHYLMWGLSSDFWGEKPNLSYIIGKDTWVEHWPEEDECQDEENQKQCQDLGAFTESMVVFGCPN", "UniProt Q8NBP7, sequence (whole entry, looked up)": "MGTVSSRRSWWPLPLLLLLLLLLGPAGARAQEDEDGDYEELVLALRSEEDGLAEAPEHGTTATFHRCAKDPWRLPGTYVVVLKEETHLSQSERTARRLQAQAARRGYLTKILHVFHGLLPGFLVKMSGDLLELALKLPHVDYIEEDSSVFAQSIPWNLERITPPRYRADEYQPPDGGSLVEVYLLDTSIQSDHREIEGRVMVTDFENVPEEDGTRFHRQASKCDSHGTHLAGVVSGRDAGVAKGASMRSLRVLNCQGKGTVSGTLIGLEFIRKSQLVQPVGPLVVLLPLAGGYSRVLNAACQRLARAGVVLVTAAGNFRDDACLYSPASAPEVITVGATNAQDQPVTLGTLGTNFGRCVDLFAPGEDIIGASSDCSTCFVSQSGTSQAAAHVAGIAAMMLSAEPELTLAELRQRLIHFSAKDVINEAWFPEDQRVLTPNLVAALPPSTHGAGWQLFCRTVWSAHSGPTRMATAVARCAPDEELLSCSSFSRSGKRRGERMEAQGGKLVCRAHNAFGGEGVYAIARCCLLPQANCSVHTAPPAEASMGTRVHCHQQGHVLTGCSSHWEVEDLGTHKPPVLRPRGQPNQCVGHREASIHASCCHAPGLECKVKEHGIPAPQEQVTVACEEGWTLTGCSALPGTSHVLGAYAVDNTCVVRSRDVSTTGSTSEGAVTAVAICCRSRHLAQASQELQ", "UniProt Q92785, sequence (whole entry, looked up)": "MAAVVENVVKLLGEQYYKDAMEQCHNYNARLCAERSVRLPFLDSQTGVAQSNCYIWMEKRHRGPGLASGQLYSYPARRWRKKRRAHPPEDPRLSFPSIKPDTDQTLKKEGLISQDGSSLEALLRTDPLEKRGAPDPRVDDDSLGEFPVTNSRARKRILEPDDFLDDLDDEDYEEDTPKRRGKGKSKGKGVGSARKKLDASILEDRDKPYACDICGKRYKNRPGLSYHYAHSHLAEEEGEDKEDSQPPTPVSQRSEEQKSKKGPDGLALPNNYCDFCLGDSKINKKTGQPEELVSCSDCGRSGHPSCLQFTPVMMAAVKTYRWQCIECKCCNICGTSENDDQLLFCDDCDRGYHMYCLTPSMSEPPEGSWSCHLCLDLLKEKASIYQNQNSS", "UniProt P54609, sequence (whole entry, looked up)": "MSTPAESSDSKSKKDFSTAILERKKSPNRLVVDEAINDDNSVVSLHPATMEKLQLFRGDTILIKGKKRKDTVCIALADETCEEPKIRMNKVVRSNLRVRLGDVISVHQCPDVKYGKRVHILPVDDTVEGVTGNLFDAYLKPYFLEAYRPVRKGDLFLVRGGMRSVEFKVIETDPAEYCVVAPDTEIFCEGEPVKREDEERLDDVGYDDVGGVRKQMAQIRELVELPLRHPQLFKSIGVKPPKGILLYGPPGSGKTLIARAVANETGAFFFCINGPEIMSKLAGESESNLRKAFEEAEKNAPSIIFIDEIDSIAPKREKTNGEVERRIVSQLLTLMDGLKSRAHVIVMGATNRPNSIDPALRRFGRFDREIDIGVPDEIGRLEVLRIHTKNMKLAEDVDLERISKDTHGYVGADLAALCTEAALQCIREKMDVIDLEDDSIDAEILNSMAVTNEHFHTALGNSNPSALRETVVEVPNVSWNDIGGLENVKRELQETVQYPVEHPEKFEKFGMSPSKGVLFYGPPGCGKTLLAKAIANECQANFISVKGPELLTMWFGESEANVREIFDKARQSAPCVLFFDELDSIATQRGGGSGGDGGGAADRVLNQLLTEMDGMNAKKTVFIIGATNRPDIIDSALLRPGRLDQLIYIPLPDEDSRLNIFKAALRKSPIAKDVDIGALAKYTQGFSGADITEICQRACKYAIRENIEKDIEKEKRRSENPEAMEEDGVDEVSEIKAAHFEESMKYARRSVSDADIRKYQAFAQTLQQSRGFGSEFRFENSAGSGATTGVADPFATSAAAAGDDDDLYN", "UniProt Q16236, sequence (whole entry, looked up)": "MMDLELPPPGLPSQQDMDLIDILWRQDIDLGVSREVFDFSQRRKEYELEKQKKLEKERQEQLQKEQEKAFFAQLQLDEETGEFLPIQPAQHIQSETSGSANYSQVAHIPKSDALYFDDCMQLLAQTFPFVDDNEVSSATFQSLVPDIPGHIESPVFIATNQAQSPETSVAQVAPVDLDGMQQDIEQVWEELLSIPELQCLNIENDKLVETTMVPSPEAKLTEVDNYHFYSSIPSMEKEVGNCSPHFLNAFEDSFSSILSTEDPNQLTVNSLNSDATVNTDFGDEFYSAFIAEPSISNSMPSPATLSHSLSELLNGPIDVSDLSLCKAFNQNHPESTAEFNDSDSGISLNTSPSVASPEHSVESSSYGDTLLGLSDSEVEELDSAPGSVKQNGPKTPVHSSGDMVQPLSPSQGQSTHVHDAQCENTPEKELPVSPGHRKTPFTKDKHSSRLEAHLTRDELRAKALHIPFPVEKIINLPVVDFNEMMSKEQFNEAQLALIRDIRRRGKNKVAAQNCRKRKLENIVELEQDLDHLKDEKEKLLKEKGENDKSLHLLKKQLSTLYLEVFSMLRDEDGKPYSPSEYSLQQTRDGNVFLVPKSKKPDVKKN"}
{"Substance": "GEYSSDFLTPEFVKFSMDLTNTEITATTSLPSFSTFMDNY (NR4A2 28-67 (Homo sapiens, UniProt P43354); sequence looked up)", "tested on": "Ncoa1 260-369 (Mus musculus, UniProt P70365)", "test": "ITC", "test system": "peptide", "quantity": "Kd", "result": "10.9 µM"}
{"Substance": "B1 (CFH 1108-1231 W1183L)", "tested on": "C3 996-1303 (Homo sapiens, UniProt P01024)", "test": "SPR", "quantity": "Kd", "result": "8.2 ± 0.3 µM"}
{"Substance": "GCVRLHESCLGQQVPCCDPAATCYCVGRGDDNLKCYCR (designed peptide AgRP scaffold)", "tested on": "ITGAV/ITGB3 U87MG cells (Homo sapiens)", "test": "flow cytometry", "test system": "designed binder, U87MG", "quantity": "Kd", "result": "0.0014 µM"}
{"Substance": "PCSK9 (Homo sapiens, UniProt Q8NBP7)", "tested on": "evolocumab IgG, PBS-stressed 28 d, Asn deamidation, heavy chain CDR2 Asn55 and Fc", "test": "SPR", "quantity": "Kd", "result": "0.0016 µM"}
{"Substance": "B2 (Cacna1c 1647-1777)", "tested on": "Jph2 1-440 S165T (Mus musculus, UniProt Q9ET78)", "test": "ITC", "quantity": "Kd", "result": "5.05 µM"}
{"Substance": "B3 (PUX5 301-421 F395S)", "tested on": "CDC48A 1-463 (Arabidopsis thaliana, UniProt P54609)", "test": "ITC", "setting": "25 °C", "quantity": "Kd", "result": "3.2 ± 0.2 µM"}
{"Substance": "IL2 fragment (Homo sapiens)", "tested on": "IL2RA ectodomain 1-217 (Homo sapiens)", "test": "BLI", "quantity": "Kd", "result": "0.0032 µM and 0.0073 µM"}
{"Substance": "BzATP", "tested on": "P2X purinoceptor 7 (P2rx7, Rattus norvegicus, UniProt Q64663, I214A/Q143A/R125A)", "test": "ion current, agonist, two-electrode voltage clamp", "test system": "Xenopus laevis oocytes", "setting": "30 µM", "how to read": "baseline: 100 µM ATP current", "quantity": "normalized current", "result": "0.2 and 0.29 and 0.23"}
{"Substance": "FNA / CGLSGLGVA-NH2 ([18F]FNA-labelled, C-amide)", "test": "ex vivo gamma counting", "test system": "peptide, glioblastoma mouse model, uterus", "setting": "60 min post injection, added: 500-fold excess CooP blocking", "quantity": "tissue uptake", "result": "0.59 %ID/g"}
{"Substance": "colistin", "tested on": "Stenotrophomonas maltophilia", "test": "broth microdilution", "test system": "clinical isolate RKI-No 136/09", "quantity": "MIC", "result": "8 µg/mL"}
{"Substance": "ptsH fragment (Escherichia coli) (sequence not shown)", "tested on": "ptsI fragment (Escherichia coli)", "test": "NMR titration", "setting": "with BSA", "quantity": "Kd", "result": "65 ± 4.7 µM"}
{"Substance": "SCN2A IQ region (Homo sapiens) (sequence not shown)", "tested on": "CALM1 (Homo sapiens, UniProt P0DP23)", "test": "fluorescence titration", "setting": "added: CaCl2", "quantity": "Kd", "result": "0.0063 µM"}
{"Substance": "histone H3 peptide fragment, K14 acetyl-lysine", "tested on": "DPF2 270-391 (Homo sapiens, UniProt Q92785)", "test": "ITC", "quantity": "Kd", "result": "0.65 µM"}
{"Substance": "11-deoxycorticosterone", "tested on": "CYP11B2 (human)", "test": "substrate binding, stopped-flow kinetic modelling", "setting": "4-state branched induced-fit model, added: equimolar adrenodoxin", "quantity": "rate constant k2", "result": "109 min⁻¹"}
{"Substance": "CREBBP TAZ1 (Homo sapiens)", "tested on": "NFE2L2 155-220, fluorescein label (Homo sapiens, UniProt Q16236)", "test": "fluorescence titration", "quantity": "Kd", "result": "32 ± 8.2 µM"}
{"Substance": "Peginesatide", "tested on": "UT7/EPO", "test": "p38 MAPK phosphorylation, agonist, electrochemiluminescence, item: phospho-p38", "setting": "10 min", "how to read": "baseline: maximal rHuEPO response", "quantity": "Emax", "result": "98 ± 7%"}
{"note": "A few entries again:"}
{"Substance": "BzATP", "tested on": "P2X purinoceptor 7 (P2rx7, Rattus norvegicus, UniProt Q64663, I214A/Q143A/R125A)", "test": "ion current, agonist, two-electrode voltage clamp", "test system": "Xenopus laevis oocytes", "setting": "30 µM", "how to read": "baseline: 100 µM ATP current", "quantity": "normalized current", "result": "0.2 and 0.29 and 0.23"}
{"Substance": "B1 (CFH 1108-1231 W1183L)", "tested on": "C3 996-1303 (Homo sapiens, UniProt P01024)", "test": "SPR", "quantity": "Kd", "result": "8.2 ± 0.3 µM"}
